Assay results gathered from unrelated publications.
Every numbered part comes from another study and shows a few of its results, in no order. Substitutions count along the parent as printed.

Set 1 — technique: protein binding microarray; form: double-stranded DNA, one strand shown; matrix: in vitro; concentration: not given; reference: not given; reading: higher = stronger binding; measurement: E-score
Target: Histone acetyltransferase KAT6A, winged helix 1, GST fusion (KAT6A, Homo sapiens, UniProt Q92794, residues 1-85)
Notes: 8-mer, flanks averaged, mean of 2 arrays, mostly near background
Construct (chain): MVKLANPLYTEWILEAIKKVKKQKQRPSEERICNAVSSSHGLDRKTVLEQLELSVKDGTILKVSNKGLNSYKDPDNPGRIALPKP
Strand = TATCCTAA; value = -0.131
Strand = GGTTGGGA; value = -0.135
Strand = GGCAGAAA; value = 0.125
Strand = ATCCTTAC; value = -0.0251
Strand = CTAAGCGA; value = 0.0477
Strand = AGCTACGC; value = 0.156
Strand = AGTAAGTA; value = -0.1

Set 2 — technique: RNA Bind-n-Seq; form: RNA; matrix: in vitro; concentration: 1 µM; notes: whole 134-nt RNA, ends assumed; with: 150 mM KCl; reference: input library; reading: higher = stronger binding; measurement: log2 enrichment
Target: Ras GTPase-activating protein-binding protein 1, C-terminal RGG region (G3BP1, Homo sapiens, UniProt Q13283)
Sequence of UniProt Q13283 (whole entry, looked up): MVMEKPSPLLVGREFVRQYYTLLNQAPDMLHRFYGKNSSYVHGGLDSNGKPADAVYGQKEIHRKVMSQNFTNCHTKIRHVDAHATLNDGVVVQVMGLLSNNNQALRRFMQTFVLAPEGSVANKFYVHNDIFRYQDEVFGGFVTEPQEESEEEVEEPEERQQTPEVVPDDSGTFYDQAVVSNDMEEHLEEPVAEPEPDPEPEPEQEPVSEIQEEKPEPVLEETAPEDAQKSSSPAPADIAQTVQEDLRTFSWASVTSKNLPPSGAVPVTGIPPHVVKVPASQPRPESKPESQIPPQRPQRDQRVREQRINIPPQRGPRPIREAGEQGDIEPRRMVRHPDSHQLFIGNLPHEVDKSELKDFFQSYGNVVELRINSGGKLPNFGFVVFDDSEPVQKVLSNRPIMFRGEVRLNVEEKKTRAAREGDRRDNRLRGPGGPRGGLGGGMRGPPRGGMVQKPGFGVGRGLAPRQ
Constant ends, left off below: GGGAGUUCUACAGUCCGACGAUC … UGGAAUUCUCGGGUGUCAAGG
Strand = UGGCCCUGGUGGCAUGCGGGGAGGAAGAGAUGGCCUCAUGGAUCGUGGUGGUCCCGGUGGAAUGUUCAGAGGUGGCCGUGGUGGAGACAG; value = 1.86
Strand = CCUGUGCUACACAUCGUAUGUACCGAAUCGGAAAAAAAGGGAAAAAAAGGGAAAAAAAGGAAAGUAUUAUGUUACGCCGUUCGGAUCUGC; value = -1.95
Strand = AGUCCUGUGCUACACAUCGUAUGUACCGAAUCAAACCCCCCCAAACCCAAAUUUAAAAAAGUAUUAUGUUACGCCGUUCGGAUCUGCACU; value = -0.989
Strand = UCCUGUGCUACACAUCGUAUGUACCGAAUCGGGGUUUUUGGGUUUUUGGGGUUUUUGGGGAAAGUAUUAUGUUACGCCGUUCGGAUCUGC; value = 0.292
Strand = AGUCCUGUGCUACACAUCGUAUGUACCGAAUCGGGUUUUUUUGGGAAAGGGUUUGGGAAAGUAUUAUGUUACGCCGUUCGGAUCUGCACU; value = 1.05
Strand = CAAGUCCUGUGCUACACAUCGUAUGUACCGAAUCGGCCCCGGGGCCCCGGCCCCGGAAAGUAUUAUGUUACGCCGUUCGGAUCUGCACUU; value = -1.92
Strand = AGUCCUGUGCUACACAUCGUAUGUACCGAAUCGGGUGGGAAAAAAAGGGUUUUUGGGAAAGUAUUAUGUUACGCCGUUCGGAUCUGCACU; value = 0.0313
Strand = UCCUGUGCUACACAUCGUAUGUACCGAAUCGGAAAAAAGGGGAAAAAAGGGGAAAAAAGGAAAGUAUUAUGUUACGCCGUUCGGAUCUGC; value = -1.29
Strand = CAAGUCCUGUGCUACACAUCGUAUGUACCGAAUCGGGGAGGGGUGGGGUUUGGGGAAAGUAUUAUGUUACGCCGUUCGGAUCUGCACUUC; value = 2.46

Set 3 — target: CCNB3, cyclin fold, Cln2 fusion (human); technique: yeast growth competition, sequencing; matrix: yeast; notes: strong parent motif; reference: not given; reading: higher = stronger binding; measurement: normalised enrichment score
Starting sequence: BRCA2 docking peptide (human); PSIKRNLLNEFDR; partner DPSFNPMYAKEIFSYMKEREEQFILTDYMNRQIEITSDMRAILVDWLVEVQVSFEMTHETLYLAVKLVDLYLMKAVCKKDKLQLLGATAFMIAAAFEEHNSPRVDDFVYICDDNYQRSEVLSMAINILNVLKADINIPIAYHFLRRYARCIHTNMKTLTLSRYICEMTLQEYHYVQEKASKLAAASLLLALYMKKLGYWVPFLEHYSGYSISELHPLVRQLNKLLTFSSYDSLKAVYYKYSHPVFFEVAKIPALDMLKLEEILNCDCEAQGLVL
Change = PSIKRNLLNEFDC [R13C]; value = 0.831
Change = PSIKRNKLNEFDR [L7K]; value = -0.182
Change = PSIKRNLLCEFDR [N9C]; value = 0.722
Change = PSIKRMLLNEFDR [N6M]; value = -0.075
Change = PSIKRNLLKEFDR [N9K]; value = 1.36
Change = PSIKRNLLNEFMR [D12M]; value = 1.12
Change = PSIKRPLLNEFDR [N6P]; value = 1.11
Change = PSIARNLLNEFDR [K4A]; value = 0.78
Change = PSIKRNLPNEFDR [L8P]; value = -0.196
Change = PSIKYNLLNEFDR [R5Y]; value = -0.127

Further values, each from its own experiment
Molecule = PhoQ, residues 284 288 289 292 302 303 SLSVQF; target = PhoP, residues 12 14 15 18 19 TQALL (Escherichia coli, UniProt P23836); assay = Sort-seq, measured: YFP reporter; test system = E. coli; setting = PhoQ-PhoP variant library, with: 10 µM Mg2+; scale = reference: high Mg2+ state, higher = stronger signaling; measurement = fold induction; value = 12.9

For quick reference, copied from above (set 1):
Strand = TATCCTAA; value = -0.131
Strand = GGTTGGGA; value = -0.135
Strand = GGCAGAAA; value = 0.125
Strand = ATCCTTAC; value = -0.0251
